Measured values of several laboratories.
A part holds a random share of what one study measured. Positions count from the first letter of the parent shown.

Block 1
Target: Histone acetyltransferase KAT6A, winged helix 2, GST fusion (KAT6A, Homo sapiens, UniProt Q92794, residues 85-181)
Method: protein binding microarray
Molecule type: double-stranded DNA, one strand shown
Medium: in vitro
Tested at: not given
Setting: 8-mer, flanks averaged, mean of 2 arrays, mostly near background
Baseline: not given
Reading: higher = stronger binding
Target sequence (chain): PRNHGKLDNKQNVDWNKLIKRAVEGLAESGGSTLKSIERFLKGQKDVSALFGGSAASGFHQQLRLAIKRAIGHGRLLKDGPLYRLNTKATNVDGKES
Strand	E-score
GGAATCCC	-0.0528
AAATAAAC	0.0116
CTGGTATA	-0.153
ACCGGTGG	-0.0423
AACGTATA	-0.212
GCATCCAC	0.129
CCTAGGCC	-0.0182
ACACATAC	-0.104
AGCCACCA	-0.0355
ACTGCAGC	-0.0839
TAATTTGA	-0.178
CTCAGTCA	-0.175

Block 2
Target: CCNA1, cyclin fold, Cln2 fusion (human)
Method: yeast growth competition, sequencing
Medium: yeast
Setting: weak parent motif
Baseline: not given
Reading: higher = stronger binding
Starting sequence: BRCA2 docking peptide (human); PSIKRNLLNEFDR
Change	normalised enrichment score
PSIKRNELNEFDR [L7E]	-0.0614
PVIKRNLLNEFDR [S2V]	0.371
PSIKRTLLNEFDR [N6T]	0.324
PSIKRNGLNEFDR [L7G]	0.122
PSIKRNLQNEFDR [L8Q]	0.169
PNIKRNLLNEFDR [S2N]	0.283
PSIKRNLLNNFDR [E10N]	0.364
SSIKRNLLNEFDR [P1S]	0.494
PSIKRNPLNEFDR [L7P]	0.153
PSIKRNRLNEFDR [L7R]	0.558
PSIWRNLLNEFDR [K4W]	-0.292
PWIKRNLLNEFDR [S2W]	0.34
PKIKRNLLNEFDR [S2K]	0.512
PSIKRDLLNEFDR [N6D]	0.281
PSDKRNLLNEFDR [I3D]	-0.0639
PSISRNLLNEFDR [K4S]	0.238
ISIKRNLLNEFDR [P1I]	0.444
PSIKRNLLNECDR [F11C]	-0.0491
PSINRNLLNEFDR [K4N]	0.286
PSIKRNLLYEFDR [N9Y]	0.696
ESIKRNLLNEFDR [P1E]	0.713
PSIKRNLLNEFCR [D12C]	0.474
PSIYRNLLNEFDR [K4Y]	0.254
PSIKGNLLNEFDR [R5G]	0.139
PSIKRALLNEFDR [N6A]	0.461

Block 3
Target: Sal-like protein 4, full length isoform A (SALL4, Homo sapiens, UniProt Q9UJQ4, residues 1-1053)
UniProt Q9UJQ4, sequence (whole entry, looked up): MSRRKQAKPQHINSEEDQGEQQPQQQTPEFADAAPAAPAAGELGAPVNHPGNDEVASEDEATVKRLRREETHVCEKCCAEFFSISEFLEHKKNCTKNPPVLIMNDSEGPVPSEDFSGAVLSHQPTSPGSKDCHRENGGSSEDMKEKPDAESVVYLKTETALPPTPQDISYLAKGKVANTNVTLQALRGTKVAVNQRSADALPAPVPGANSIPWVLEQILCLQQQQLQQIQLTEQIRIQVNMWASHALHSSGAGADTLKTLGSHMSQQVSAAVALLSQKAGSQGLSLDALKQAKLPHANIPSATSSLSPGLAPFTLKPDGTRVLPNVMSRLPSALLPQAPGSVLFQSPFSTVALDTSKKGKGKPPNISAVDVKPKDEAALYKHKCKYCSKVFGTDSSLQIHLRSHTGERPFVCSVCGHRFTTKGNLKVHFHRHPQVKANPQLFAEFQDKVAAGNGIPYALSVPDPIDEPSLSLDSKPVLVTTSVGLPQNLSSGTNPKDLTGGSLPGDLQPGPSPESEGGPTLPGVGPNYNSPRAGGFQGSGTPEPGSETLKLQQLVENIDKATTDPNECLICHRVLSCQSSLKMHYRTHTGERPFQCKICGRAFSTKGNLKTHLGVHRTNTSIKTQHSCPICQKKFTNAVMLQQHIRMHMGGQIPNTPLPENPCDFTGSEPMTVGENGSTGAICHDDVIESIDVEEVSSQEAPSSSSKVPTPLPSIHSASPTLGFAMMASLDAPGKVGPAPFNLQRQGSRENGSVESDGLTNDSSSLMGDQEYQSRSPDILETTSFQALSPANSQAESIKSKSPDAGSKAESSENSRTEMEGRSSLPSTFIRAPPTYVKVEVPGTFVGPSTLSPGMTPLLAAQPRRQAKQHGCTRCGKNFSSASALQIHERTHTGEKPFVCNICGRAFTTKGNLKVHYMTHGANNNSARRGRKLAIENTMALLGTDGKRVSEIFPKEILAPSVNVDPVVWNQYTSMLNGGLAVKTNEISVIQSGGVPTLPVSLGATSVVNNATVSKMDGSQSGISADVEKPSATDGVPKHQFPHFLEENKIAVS
Method: universal PBM
Molecule type: double-stranded DNA, one strand shown
Medium: in vitro
Tested at: 600 nM
Setting: 8-mer, flanks averaged, mean of replicates
Reading: higher = stronger binding
Strand	E-score
AAGGGAAA	0.205
CGAAATAG	0.0818
CGTTAGGC	-0.0502
AAACCGAG	-0.0578
ATCAACTA	0.26
AAATCTTG	0.156
GGACTGAC	-0.22
AAAATGGT	0.287
GCGCCGCC	-0.399
ATTAGAAC	0.263
CTACCAAC	0.105
CACGGATA	0.127
GGGGGAAC	-0.35

Single results of other studies
Substance	target	test	test system	conditions	scale	endpoint	result
PhoQ, residues 284 288 289 292 302 303 SLGVVW	PhoP, residues 12 14 15 18 19 TTLRV (Escherichia coli, UniProt P23836)	Sort-seq, item: YFP reporter	E. coli	PhoQ-PhoP variant library, with: 10 µM Mg2+	baseline: high Mg2+ state, higher = stronger signaling	fold induction	19.9

Repeated from above (block 2):
Change	normalised enrichment score
PSIKRNPLNEFDR [L7P]	0.153
PSIYRNLLNEFDR [K4Y]	0.254
ESIKRNLLNEFDR [P1E]	0.713
PSIKRNRLNEFDR [L7R]	0.558
PSIKRDLLNEFDR [N6D]	0.281
PSIKRNLLYEFDR [N9Y]	0.696
PSIKRNLLNNFDR [E10N]	0.364
